Measured values collected from several papers.
Compare with care: the assays were run in different laboratories. Values joined by “and” are separate records of one study, mostly repeats; a detail may differ. Numbers after ± are the reported error.

CCN(CC)CC(=O)Nc1cccc(-n2cc(-c3ccc4ccc(-c5cn(-c6cccc(NC(=O)CN(CC)CC)c6)nn5)cc4c3)nn2)c1  fold regulation (RCC4; PCR array, measured: ENG; 5 x IC50, 4 h, normoxia; baseline: untreated): 1.1
CC1=C[C@H](O/C=C2/C(=O)O[C@@H]3c4ccccc4C[C@H]23)OC1=O  maximum germination (Arabidopsis thaliana; htl-3 mutant): 9%
Cn1ncc2cc(-c3cncc(Cl)c3N3CCC4(CCNC4=O)CC3)ccc21  log2 fold change (LS174T; gene expression, microarray, measured: KRT17 mRNA; concentration not given, 4 h; baseline: untreated cells): 2.91
CN1CCCNC(=O)c2cccc(c2)C(=O)NCCCN(C)CCCNc2cccc3c2C(=O)c2cccc(c2C3=O)NCCC1  log2 fold change (SAS; RNA-Seq, measured: UQCC1 mRNA; 1 µM, 6 h; baseline: untreated cells): 0.555
Fc1ccc(Nc2nc(NC3CCCCC3)c3cc(Br)ccc3n2)cc1F  maximal inhibition (β2AR/β1AR TM2 chimera; β-arrestin2 recruitment, antagonist, BRET; baseline: isoprenaline maximal response): -10%
CC(C)c1ccc(N(C)c2ccc3c(c2)OCC[C@H]3CNc2cnccc2C(=O)O)cc1  IC50 (SNU878; cell viability, CellTiter-Glo; 7 days): ≥ 10000 nM
CCCC[C@@H]1NC(=O)[C@@H](CC(C)C)NC(=O)[C@H](CCCCNC(=O)CN2CCN(CC(=O)O)CCN(CC(=O)O)CC2)NC(=O)NNC(=O)[C@H](Cc2c[nH]cn2)NC(=O)[C@@H](Cc2c[nH]c3ccccc23)NC1=O [copper-64 labelled]  tissue uptake (Balb/c mice, muscle; intravenous, dose not given): 0.22 ± 0.14 %ID/g
CC(=O)n1cc([C@H]2C=C(C(=O)N3CCN(Cc4ccc5c(c4)OCO5)CC3)O[C@@H](OCc3ccc(CO)cc3)C2)c2ccccc21  translation activity (Trypanosoma cruzi; reporter mRNA translation, inhibitor, measured: Renilla luciferase mRNA; cell-free extract; concentration not given, test 1; baseline: positive over negative control): 56.2%
CCOc1cncc(-c2ccc(NC(=O)C3(c4ccnc(NS(=O)(=O)C5CC5)n4)CCOCC3)nc2)n1  IC50 (MM.1R; cell growth or viability, ATP luminescence; 72 h): 25 nM
CC(=O)[O-].O.O.O.O.[Co+2].[O-]c1ccc(Br)cc1C=NCCN1CCOCC1  inhibition (DPPH radical scavenging; 160 µM): 53.6%
Nc1ncc(-c2cc(-c3cnn(CC(F)(F)F)c3)ncc2F)nc1C(=O)NC1CNCC(F)C1 (stereo not shown)  remaining binding (DAPK2; KINOMEscan; 1 µM; baseline: DMSO control): 100%
C=CC(=O)N1[C@@H](c2ccc3c(c2)OCO3)c2[nH]c3ccccc3c2C[C@H]1C(=O)N1CCN(C)CC1  relative co-enrichment (human cyclin E1 wild type-3xFLAG:CDK2; co-IP with TMT proteomics, measured: PCMT1; concentration not given, P22061; baseline: wild type DMSO): 119%
c1ccc(-c2n[nH]cc2-c2ccnc3ccccc23)nc1  log2 fold change (CDC5 (Candida albicans); kinase binding, MIB/MS competition; Candida albicans lysate; 10 µM; baseline: DMSO): 0.19
C=CC(=O)Nc1cccc(Cn2ncc3cnc(Nc4cnn(CCOC)c4)nc32)c1  percent of control (CAMK2D human; binding, KINOMEscan; 100 nM; lower = stronger binding): 100%
C=C(NC(=O)c1csc(-c2nc3c(cc2O)-c2nc(cs2)C(=O)NC(C(C)O)C(=O)NC(=C(C)OC)c2nc(cs2)C(=O)NC2c4nc(cs4)C(=O)NC(COC(=O)c4c5c6c(cccc6n4O)COC(=O)C(OC4CC(C)(O)C(N(C)C)C(C)O4)C2OC5)c2nc-3cs2)n1)C(N)=O (stereo not shown)  bacterial load (Streptococcus pneumoniae; -4, immunocompromised mice, lung infection, lung; 32 mg/kg/day three times daily, 24 h post-dose): 3.7 log CFU/g
CC1CCC2C(C)(C)C(O)CCC2(C)C12Cc1c(O)cc(CO)c(C=O)c1O2 (stereo not shown)  kcat (StaI (Stachybotrys chartarum); substrate; 30 min, pH 7.0, 45 °C): 0.072 s⁻¹
COc1cc(O)ccc1CCC(c1ccc(O)cc1)c1cc2c(c(C)c1O)OC(c1ccc(O)cc1)CC2 (mixture of isomers)  arachidonic acid level (human blood; 3 µM, with: A23187): 86700 ± 4320 pg/mL
COCCOCCOCCNC(=O)Cc1cc(CC(=O)N[C@H]2C[C@H]3C(=O)Nc4cc(OCCOCCOCCOC)cc(n4)C(=O)N4CCC[C@H]4C(=O)Nc4cc(OCCOCCOCCOC)cc(n4)C(=O)N4CCC[C@H]4C(=O)Nc4cc(OCCOCCOCCOC)cc(n4)C(=O)N3C2)cc(CC(=O)N[C@H]2C[C@H]3C(=O)Nc4cc(OCCOCCOCCOC)cc(n4)C(=O)N4CCC[C@H]4C(=O)Nc4cc(OCCOCCOCCOC)cc(n4)C(=O)N4CCC[C@H]4C(=O)Nc4cc(OCCOCCOCCOC)cc(n4)C(=O)N3C2)c1  ΔG (anion binding, ITC; water; 298 K, with: sodium bromide): -18.4 ± 0.1 kJ mol^–1
CCN(Cc1ccc(C#CCCO)cc1)CC1CCCN(CCc2cccc(F)c2)C1 (stereo not shown)  translation activity (Trypanosoma cruzi; reporter mRNA translation, inhibitor, measured: Renilla luciferase mRNA; cell-free extract; concentration not given, test 1; baseline: positive over negative control): 145% and 131%
O=c1[nH]cc(C(c2ccc(Cl)cc2)c2c[nH]c(=O)[nH]c2=O)c(=O)[nH]1  inhibition (HIV-1 subtype C; p24 antigen production, p24 ELISA; 62.5 µg/mL): 32%
CNS(=O)(=O)Nc1nccc(Cc2c(C)c3ccc(Oc4ncccc4F)cc3oc2=O)c1F  IC50 (NCI-H2171; cell viability; 7 days): > 1000 nM
O=c1[nH]cc(C(c2cccc(C(F)(F)F)c2)c2c[nH]c(=O)[nH]c2=O)c(=O)[nH]1  inhibition (HIV-1 subtype C; p24 antigen production, p24 ELISA; 500 µg/mL): 63%
COC1CN([C@H]2CC[C@H]([C@@]3(C)Oc4c(Cl)cc(C(=O)NCc5c(SC)cc(C)[nH]c5=O)c(C)c4O3)CC2)C1  log2 fold change (RNA-seq, measured: EIF5A2 mouse homolog; mouse, HT-1376 xenograft, whole blood; dose not given; baseline: vehicle): 0.486
Cc1ccccc1C(c1c[nH]c(=O)[nH]c1=O)c1c[nH]c(=O)[nH]c1=O  inhibition (HIV-1 subtype C; p24 antigen production, p24 ELISA; 500 µg/mL): 78%
Cc1ncsc1-c1ccc(C(C)NC(=O)C2CC(O)CN2C(=O)C(NC(=O)CCCCCCCCCCN2CCCC(Nc3ncc(Cl)c(Nc4ccccc4S(=O)(=O)C(C)C)n3)C2)C(C)(C)C)cc1 (stereo not shown)  log2 fold change (22Rv1; RNA-seq, measured: RTL6 mRNA; concentration not given; baseline: DMSO): -1.27

Excerpt of the above:
O=c1[nH]cc(C(c2cccc(C(F)(F)F)c2)c2c[nH]c(=O)[nH]c2=O)c(=O)[nH]1  inhibition (HIV-1 subtype C; p24 antigen production, p24 ELISA; 500 µg/mL): 63%
COC1CN([C@H]2CC[C@H]([C@@]3(C)Oc4c(Cl)cc(C(=O)NCc5c(SC)cc(C)[nH]c5=O)c(C)c4O3)CC2)C1  log2 fold change (RNA-seq, measured: EIF5A2 mouse homolog; mouse, HT-1376 xenograft, whole blood; dose not given; baseline: vehicle): 0.486
Cc1ccccc1C(c1c[nH]c(=O)[nH]c1=O)c1c[nH]c(=O)[nH]c1=O  inhibition (HIV-1 subtype C; p24 antigen production, p24 ELISA; 500 µg/mL): 78%
